Measured values of several laboratories.
Protocols differ between the studies behind these lines.
UCHL1: Ubiquitin carboxyl-terminal hydrolase isozyme L1 (UCHL1, Homo sapiens, UniProt P09936)
Chain of UniProt P09936 (whole entry, looked up): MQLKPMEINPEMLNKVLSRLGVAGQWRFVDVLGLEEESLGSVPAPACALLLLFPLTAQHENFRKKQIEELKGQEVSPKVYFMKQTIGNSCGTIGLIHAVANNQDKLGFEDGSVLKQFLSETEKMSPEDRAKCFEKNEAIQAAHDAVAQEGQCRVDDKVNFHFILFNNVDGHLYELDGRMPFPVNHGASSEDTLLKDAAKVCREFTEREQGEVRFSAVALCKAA
Chain of UniProt Q07794 (whole entry, looked up): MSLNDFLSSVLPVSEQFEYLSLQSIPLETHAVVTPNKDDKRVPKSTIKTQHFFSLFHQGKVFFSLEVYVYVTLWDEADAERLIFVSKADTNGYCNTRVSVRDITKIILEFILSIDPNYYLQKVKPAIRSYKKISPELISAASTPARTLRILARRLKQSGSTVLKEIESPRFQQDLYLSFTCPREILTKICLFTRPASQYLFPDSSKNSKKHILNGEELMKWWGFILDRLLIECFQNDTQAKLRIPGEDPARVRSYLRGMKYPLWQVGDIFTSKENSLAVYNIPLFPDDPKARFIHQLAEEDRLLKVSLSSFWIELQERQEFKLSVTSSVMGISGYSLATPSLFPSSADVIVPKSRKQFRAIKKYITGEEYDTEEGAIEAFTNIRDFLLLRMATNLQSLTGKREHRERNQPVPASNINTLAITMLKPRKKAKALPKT

SMILES | target or system | test | system | conditions | scale | quantity | result
O=C(c1ccc(Nc2nccc(-c3cc4ccccc4s3)n2)cc1)N1CCC(N2CCCC2)CC1 | Toxoplasma gondii | parasite growth | HFF, bradyzoite, glutamine-induced |  |  | EC50 | 1.6 µM
c1coc(-c2n[nH]cc2-c2ccnc3ccccc23)c1 | MKK2 (Candida albicans) | kinase binding, MIB/MS competition | Candida albicans lysate | 10 µM | baseline: DMSO | log2 fold change | -0.04
CC(=O)N1c2ccc(C(=O)CCl)cc2CC1C (centres unmarked) | UCHL1 | covalent, intact protein LC-MS |  | 12.5 µM |  | labelling | 19%
COc1cc(C#C[C@H](O)CC(C)C)ccc1O | Pseudomonas aeruginosa | static biofilm | PA14 | 10 µM, 24 h, static | baseline: DMSO | biofilm formation | 72%
CC(=O)OC[C@H]1O[C@@H]([S-])[C@H](OC(C)=O)[C@@H](OC(C)=O)[C@@H]1OC(C)=O.CCP(CC)CC.[Au+] | Toxoplasma gondii | parasite growth | HFF, bradyzoite, glutamine-induced |  |  | EC50 | 0.412 µM
O=C(/C=C/C=C/C=C/C1CCCCC1)NC1=C[C@@](O)(/C=C/C=C/C=C/C(=O)NC2=C(O)CCC2=O)[C@@H]2O[C@@H]2C1=O | SK-HEP1 | cell growth, CellTiter-Glo |  | 78 h |  | GI50 | 18.5 µM
[H]/N=C(/NCCCCC)N/N=C/c1c[nH]c2ccc(OC)cc12 | Toxoplasma gondii | parasite growth | HFF, bradyzoite, alkaline-induced |  |  | EC90 | 8.34 µM
O=C(Cn1ccnc1[N+](=O)[O-])NCc1ccccc1 | Trypanosoma cruzi | reporter translation, Renilla luciferase mRNA translation | cell-free extract | 40 µM | baseline: DMSO | inhibition | 20.4%
O=S(=O)(c1ccc(Br)c2nsnc12)N1CCC(Cc2ccccc2)CC1 | Histone acetyltransferase RTT109, with Vps75 (Saccharomyces cerevisiae, UniProt Q07794) | enzyme activity, inhibitor, HTS, CPM-based, dose response |  |  |  | IC50 | > 125 µM
OC(C#Cc1ccc(F)c(F)c1)c1ccccc1 (centres unmarked) | Pseudomonas aeruginosa | static biofilm | PA14 | 10 µM, 24 h, static | baseline: DMSO | biofilm formation | 78%
C[C@H]1C[C@H]2CSC(N)=N[C@@]2(c2nc(NC(=O)c3ccc(OC(F)F)cn3)cs2)CO1 |  | measured: Aβ1-40 | healthy adults, plasma | 400 mg single dose, 6 h post-dose | baseline: placebo | percent change from baseline | -78.2%
Oc1ccccc1-c1n[nH]cc1-c1ccnc2ccccc12 | VPS15 (Candida albicans) | kinase binding, MIB/MS competition | Candida albicans lysate | 10 µM | baseline: DMSO | log2 fold change | 0.25
N#CC(=Cc1cccnc1)C(=O)Nc1cccc2ccccc12 | UCHL1 | covalent, intact protein LC-MS |  | 12.5 µM |  | labelling | 27.2%
CCn1cc(-c2cc(Cn3ccnc3)cc3c2CCN([C@H](c2cc(OC)ccn2)C2CC2)C3=O)c(C(F)(F)F)n1 | MDA-MB-453 | cell growth, inhibitor |  | 120 h |  | EC50 | 0.315 µM
Cn1cc(-c2ccc(-c3cncc(Cl)c3N3CCC4(CCNC4=O)CC3)cc2)cn1 | COLO 205 | microarray, measured: ITPR1 |  | concentration not given, 2 h, gene set IP3R1 | baseline: untreated cells | fold change in expression | 2.43
CC(C)NCC(O)c1ccc(O)c(O)c1 (centres unmarked) |  |  | ventricular cardiomyocytes, C57BL/6 mouse | dose not given, 0.484 s |  | sarcomere length | 1.57 µm
COCCOC(=O)C1=C(C)NC(C)=C(C(=O)OC/C=C/c2ccccc2)C1c1cccc([N+](=O)[O-])c1 (centres unmarked) | Toxoplasma gondii | parasite growth, luciferase reporter | HFF, tachyzoite | 72 h |  | EC50 | 11.8 µM
COc1cnc2cccc(N3CCc4c(cc(Cn5ccnc5C)cc4-c4cn(C)nc4C(F)(F)F)C3=O)c2c1 | SBC-5 | cell growth, inhibitor |  | 120 h |  | EC50 | 2.35 µM
CC(C)(C)c1ccc(S(=O)(=O)/C=C/C#N)cc1 | Toxoplasma gondii | parasite growth | HFF, bradyzoite, glutamine-induced |  |  | EC90 | 7.24 µM
OC(CCN1CCCCC1)(c1ccccc1)C1CC2C=CC1C2 (centres unmarked) |  | resting-state EEG | healthy elderly humans | oral, 2 mg, eyes closed, LS mean |  | EEG Beta3-power Pz-O2 | 2.2 µV²

Excerpt of the above:
SMILES | target or system | test | system | conditions | scale | quantity | result
O=C(/C=C/C=C/C=C/C1CCCCC1)NC1=C[C@@](O)(/C=C/C=C/C=C/C(=O)NC2=C(O)CCC2=O)[C@@H]2O[C@@H]2C1=O | SK-HEP1 | cell growth, CellTiter-Glo |  | 78 h |  | GI50 | 18.5 µM
